Results from different studies.
Compare with care: the assays were run in different laboratories.
4'-phosphopantetheinyl transferase PptT: 4'-phosphopantetheinyl transferase PptT (Mycobacterium tuberculosis, UniProt O33336)
UniProt O33336, sequence (whole entry, looked up): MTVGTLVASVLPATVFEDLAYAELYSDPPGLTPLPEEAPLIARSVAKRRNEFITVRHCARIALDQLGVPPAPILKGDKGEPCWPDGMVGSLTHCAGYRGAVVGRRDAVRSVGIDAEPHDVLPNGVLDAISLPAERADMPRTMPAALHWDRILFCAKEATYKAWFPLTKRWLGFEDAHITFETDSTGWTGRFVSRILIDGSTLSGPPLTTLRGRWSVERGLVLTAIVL
UniProt O00329, sequence (whole entry, looked up): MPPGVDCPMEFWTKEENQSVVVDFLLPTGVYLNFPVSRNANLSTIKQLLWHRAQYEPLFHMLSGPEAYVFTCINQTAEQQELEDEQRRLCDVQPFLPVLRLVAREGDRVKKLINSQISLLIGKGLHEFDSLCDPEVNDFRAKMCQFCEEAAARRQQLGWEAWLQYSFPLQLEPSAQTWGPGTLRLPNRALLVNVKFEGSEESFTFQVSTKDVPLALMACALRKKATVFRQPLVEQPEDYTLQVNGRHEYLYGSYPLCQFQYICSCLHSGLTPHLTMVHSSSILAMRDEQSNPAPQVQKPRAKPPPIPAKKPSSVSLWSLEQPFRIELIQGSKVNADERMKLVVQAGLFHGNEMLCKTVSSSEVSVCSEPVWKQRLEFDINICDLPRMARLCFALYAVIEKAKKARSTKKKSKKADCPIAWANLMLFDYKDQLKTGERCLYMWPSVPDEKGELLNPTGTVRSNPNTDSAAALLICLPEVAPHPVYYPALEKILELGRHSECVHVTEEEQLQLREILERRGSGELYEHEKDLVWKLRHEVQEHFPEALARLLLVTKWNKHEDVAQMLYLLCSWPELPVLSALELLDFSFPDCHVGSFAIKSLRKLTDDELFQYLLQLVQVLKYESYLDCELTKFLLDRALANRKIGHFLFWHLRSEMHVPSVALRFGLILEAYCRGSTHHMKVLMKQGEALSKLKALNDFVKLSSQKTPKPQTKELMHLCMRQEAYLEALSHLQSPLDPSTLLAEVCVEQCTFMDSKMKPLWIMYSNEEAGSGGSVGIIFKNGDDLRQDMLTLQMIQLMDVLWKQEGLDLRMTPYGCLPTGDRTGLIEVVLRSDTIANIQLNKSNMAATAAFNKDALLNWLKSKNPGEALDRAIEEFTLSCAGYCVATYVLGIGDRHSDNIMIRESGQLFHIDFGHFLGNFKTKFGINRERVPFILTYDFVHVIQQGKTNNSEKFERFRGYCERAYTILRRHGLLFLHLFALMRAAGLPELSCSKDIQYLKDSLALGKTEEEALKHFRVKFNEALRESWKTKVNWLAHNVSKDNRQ
UniProt Q05655, sequence (whole entry, looked up): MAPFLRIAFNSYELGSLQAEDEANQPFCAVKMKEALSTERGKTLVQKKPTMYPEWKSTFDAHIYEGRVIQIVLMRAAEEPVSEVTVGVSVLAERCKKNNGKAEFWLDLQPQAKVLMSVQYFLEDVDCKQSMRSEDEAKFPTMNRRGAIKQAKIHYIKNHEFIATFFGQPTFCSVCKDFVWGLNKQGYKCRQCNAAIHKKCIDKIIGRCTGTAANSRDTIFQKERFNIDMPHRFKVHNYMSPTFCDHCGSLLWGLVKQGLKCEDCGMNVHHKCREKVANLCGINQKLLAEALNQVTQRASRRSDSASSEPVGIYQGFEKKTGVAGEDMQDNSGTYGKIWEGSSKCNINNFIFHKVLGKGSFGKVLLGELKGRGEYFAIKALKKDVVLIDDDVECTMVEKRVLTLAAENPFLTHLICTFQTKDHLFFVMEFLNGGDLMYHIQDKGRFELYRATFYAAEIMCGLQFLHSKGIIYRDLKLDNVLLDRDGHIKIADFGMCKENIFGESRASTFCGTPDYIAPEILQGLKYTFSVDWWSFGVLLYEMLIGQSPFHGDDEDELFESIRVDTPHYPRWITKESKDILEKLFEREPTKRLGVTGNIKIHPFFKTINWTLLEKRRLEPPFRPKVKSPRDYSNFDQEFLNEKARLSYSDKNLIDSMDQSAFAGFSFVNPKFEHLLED
UniProt P51957, sequence (whole entry, looked up): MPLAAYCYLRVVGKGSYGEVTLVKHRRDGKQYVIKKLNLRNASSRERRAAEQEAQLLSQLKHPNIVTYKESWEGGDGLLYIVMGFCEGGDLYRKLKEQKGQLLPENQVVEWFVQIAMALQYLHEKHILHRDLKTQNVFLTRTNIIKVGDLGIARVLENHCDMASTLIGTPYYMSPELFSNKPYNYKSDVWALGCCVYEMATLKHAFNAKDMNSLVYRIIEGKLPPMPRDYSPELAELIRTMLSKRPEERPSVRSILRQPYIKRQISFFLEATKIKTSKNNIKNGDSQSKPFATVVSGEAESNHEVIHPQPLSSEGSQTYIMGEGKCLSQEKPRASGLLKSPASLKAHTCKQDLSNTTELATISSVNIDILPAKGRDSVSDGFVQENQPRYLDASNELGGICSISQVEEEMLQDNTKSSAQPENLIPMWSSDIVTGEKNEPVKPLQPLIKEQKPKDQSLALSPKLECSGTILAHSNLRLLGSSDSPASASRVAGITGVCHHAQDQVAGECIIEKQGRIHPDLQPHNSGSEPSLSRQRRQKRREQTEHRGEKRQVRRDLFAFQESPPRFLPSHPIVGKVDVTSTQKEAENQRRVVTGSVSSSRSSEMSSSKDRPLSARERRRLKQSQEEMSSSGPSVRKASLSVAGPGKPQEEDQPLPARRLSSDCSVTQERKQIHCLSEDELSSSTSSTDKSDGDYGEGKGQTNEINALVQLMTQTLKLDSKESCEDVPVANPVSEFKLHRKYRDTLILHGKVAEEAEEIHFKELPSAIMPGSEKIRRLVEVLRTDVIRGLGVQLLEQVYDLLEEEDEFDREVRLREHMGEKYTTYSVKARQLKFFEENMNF
UniProt P35372, sequence (whole entry, looked up): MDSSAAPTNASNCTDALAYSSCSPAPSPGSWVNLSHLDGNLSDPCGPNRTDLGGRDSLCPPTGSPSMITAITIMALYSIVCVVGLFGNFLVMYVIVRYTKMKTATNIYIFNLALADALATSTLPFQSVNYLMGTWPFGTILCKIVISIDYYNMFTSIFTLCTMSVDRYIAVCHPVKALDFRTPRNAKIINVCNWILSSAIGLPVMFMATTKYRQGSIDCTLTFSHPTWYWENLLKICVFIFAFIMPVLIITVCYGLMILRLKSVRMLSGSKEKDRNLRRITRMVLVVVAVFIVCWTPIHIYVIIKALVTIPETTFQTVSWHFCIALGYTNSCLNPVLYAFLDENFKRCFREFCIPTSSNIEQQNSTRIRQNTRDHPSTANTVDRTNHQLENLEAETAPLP
UniProt Q9NRP7, sequence (whole entry, looked up): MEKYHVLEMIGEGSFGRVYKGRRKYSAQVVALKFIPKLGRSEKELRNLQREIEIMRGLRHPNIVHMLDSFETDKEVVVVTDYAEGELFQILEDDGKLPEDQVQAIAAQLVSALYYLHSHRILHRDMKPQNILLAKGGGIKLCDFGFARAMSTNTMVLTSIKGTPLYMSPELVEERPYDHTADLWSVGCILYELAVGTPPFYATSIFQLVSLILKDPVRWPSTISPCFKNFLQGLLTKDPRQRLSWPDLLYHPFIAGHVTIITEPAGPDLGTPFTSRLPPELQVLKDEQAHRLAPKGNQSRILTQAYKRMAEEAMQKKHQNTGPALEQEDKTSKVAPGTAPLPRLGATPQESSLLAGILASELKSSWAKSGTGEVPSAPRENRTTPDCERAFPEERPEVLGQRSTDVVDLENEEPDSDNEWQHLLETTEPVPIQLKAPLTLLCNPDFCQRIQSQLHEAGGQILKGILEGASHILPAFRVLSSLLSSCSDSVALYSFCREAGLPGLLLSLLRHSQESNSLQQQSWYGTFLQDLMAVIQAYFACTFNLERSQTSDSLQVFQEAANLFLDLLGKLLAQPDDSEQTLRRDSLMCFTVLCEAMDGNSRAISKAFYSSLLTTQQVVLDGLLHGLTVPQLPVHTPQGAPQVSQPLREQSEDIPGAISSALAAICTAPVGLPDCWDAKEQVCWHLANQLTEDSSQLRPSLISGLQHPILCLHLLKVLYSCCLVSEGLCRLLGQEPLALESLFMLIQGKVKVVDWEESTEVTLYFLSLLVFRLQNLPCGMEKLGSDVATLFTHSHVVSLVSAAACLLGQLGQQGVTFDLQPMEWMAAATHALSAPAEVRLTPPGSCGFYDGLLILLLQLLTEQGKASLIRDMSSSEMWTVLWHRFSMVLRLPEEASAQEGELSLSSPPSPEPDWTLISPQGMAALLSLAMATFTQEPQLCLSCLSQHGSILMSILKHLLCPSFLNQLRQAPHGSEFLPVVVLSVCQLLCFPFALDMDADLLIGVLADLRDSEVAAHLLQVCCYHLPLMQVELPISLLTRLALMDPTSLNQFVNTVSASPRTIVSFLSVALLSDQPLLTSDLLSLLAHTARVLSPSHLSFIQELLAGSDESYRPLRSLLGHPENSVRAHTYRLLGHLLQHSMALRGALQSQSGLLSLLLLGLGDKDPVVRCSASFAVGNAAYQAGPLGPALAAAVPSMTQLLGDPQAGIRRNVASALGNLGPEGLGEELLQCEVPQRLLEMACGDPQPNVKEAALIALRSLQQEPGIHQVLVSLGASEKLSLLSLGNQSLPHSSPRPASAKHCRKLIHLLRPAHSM
UniProt P21918, sequence (whole entry, looked up): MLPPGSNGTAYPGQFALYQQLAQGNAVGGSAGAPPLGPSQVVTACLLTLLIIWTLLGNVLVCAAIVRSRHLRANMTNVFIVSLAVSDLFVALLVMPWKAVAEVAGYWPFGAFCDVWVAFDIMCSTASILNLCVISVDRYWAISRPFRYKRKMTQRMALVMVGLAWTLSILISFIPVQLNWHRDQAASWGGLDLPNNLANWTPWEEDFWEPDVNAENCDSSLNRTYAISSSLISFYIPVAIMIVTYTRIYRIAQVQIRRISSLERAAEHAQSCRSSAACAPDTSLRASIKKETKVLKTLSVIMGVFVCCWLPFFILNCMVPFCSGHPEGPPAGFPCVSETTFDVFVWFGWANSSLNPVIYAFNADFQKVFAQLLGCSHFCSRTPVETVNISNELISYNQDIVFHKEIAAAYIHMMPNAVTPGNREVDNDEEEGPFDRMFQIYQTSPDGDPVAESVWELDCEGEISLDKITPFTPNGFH

| Structure (SMILES) | tested on | assay | conditions | measurement | result |
| --- | --- | --- | --- | --- | --- |
| CC12CC3CC(C)(C1)CC(N)(C3)C2 | Potassium/sodium hyperpolarization-activated cyclic nucleotide-gated channel 1 (Homo sapiens, UniProt O60741) | ion current, inhibitor | 3 µM | inhibition | 0.998% |
| O=c1c2c(Cl)cccc2[nH]c(=S)n1Cc1cccnc1 | 4'-phosphopantetheinyl transferase PptT | enzyme activity, inhibitor, FP | – | IC50 | 430 nM |
| CCN(CC)CCCC[C@H](NC(=O)[C@H](CC(C)C)NC(=O)[C@H](C)NC(=O)[C@H](Cc1ccccc1)NC(=O)c1ccc(C(C)(C)C)cc1)C(=O)N[C@@H](CO)C(=O)OC | Protein polybromo-1, BD2 (PBRM1, Homo sapiens, UniProt Q86U86) | thermal stability, DSF | 25 µM | ΔTm | 0.24 °C |
| COc1ncccc1-c1cnn2ccc(N3CCN(C(=O)OC(C)C)CC3)nc12 | PRKCD (Homo sapiens, UniProt Q05655) | binding, competition with immobilised ligand | 1 µM | remaining binding | 83% |
| Cc1nn(C)cc1-c1nc2c(N3CCN(Cc4ccc(Cl)cc4)CC3)c(Cl)cnc2[nH]1 | PIK3CD (Homo sapiens, UniProt O00329) | binding, competition with immobilised ligand | 1 µM | remaining binding | 81% |
| Nc1ncc(-c2nc(N3CCOCC3)nc(N3CCOCC3)n2)c(C(F)F)n1 | STK36 (Homo sapiens, UniProt Q9NRP7) | binding, competition with immobilised ligand | 10 µM | remaining binding | 99% |
| CC(C)c1ccc(Cn2c(=S)[nH]c3ccc(Cl)cc3c2=O)cn1 | 4'-phosphopantetheinyl transferase PptT | enzyme activity, inhibitor, FP | – | IC50 | 4730 nM |
| N.N.[Cl][Pt][Cl] | SU-DHL-4 | cell growth or viability, ATP luminescence | 72 h | IC50 | 1030 nM |
| c1cncc([C@@H]2CCCN2)c1 | DRD5 (Homo sapiens, UniProt P21918) | ligand displacement | 50 µM | inhibition | 1.45% |
| [2H]c1c([2H])c([C@]2([2H])CCCN2C(=O)C(C)(C)Oc2ccc3cn[nH]c3c2)c([2H])c([2H])c1C([2H])([2H])[2H] | NEK4 (Homo sapiens, UniProt P51957) | binding, competition with immobilised ligand | 1 µM | remaining binding | 100% |
| CC(C)CC(=O)OC[C@H]1O[C@@](C#N)(c2ccc3c(N)ncnn23)[C@H](O)[C@@H]1O | OPRM1 (Homo sapiens, UniProt P35372) | cell-free assay | 20 µM | inhibition | 13% |

A few entries again:
| Structure (SMILES) | tested on | assay | conditions | measurement | result |
| --- | --- | --- | --- | --- | --- |
| CC(C)CC(=O)OC[C@H]1O[C@@](C#N)(c2ccc3c(N)ncnn23)[C@H](O)[C@@H]1O | OPRM1 (Homo sapiens, UniProt P35372) | cell-free assay | 20 µM | inhibition | 13% |
